Measurements pooled from the literature.
Lines come from different studies, so protocols differ. ± marks the error that the study gave.
Cell line: PC-3

Structure (SMILES) | test | setting | how to read | measurement | value
COc1cc(CNC(=O)CCCC/C=C/C(C)C)ccc1OCc1cn(-c2ccccc2Cl)nn1 | SRB | 10 µM, 48 h | – | growth percent | 80.6%
C#C[C@@]1(O)[C@@H](CO)O[C@@H](n2cc(Cl)c3c(N)ncnc32)[C@@H]1O | cell growth or viability, SRB | 48 h | – | GI50 | 0.192 µM
C[C@]1([N+](=O)[O-])C(=O)c2ccccc2O[C@@H]1CC(=O)OCc1ccccc1 | cell growth or viability, SRB | 96 h | – | IC50 | 20.1 µM
COc1cc(CNC(=O)CCCC/C=C/C(C)C)ccc1OCc1cn(-c2cccc([N+](=O)[O-])c2)nn1 | SRB | 10 µM, 48 h | – | growth percent | 82.2%
CCCCCCCC(=O)NCCCC[C@H](N)C(=O)NCCCNCCCCNCCCN | cell growth | 6 days, with: DFMO 5.0 mM, spermidine 0.5 µM, aminoguanidine 1.0 mM | – | EC50 | 1.1 µM
COC(=O)c1c(-c2ccc(Cl)cc2Cl)c2n(c1C(=O)OC)CCn1cccc1-2 | cell growth or viability, MTT | 48 h | – | IC50 | 81.1 µM
CSC(SC)=C(C#N)C(=O)Nc1nnc(NC(=O)c2ccccc2)s1 | cell growth or viability, MTT | 48 h | – | IC50 | 12.2 µM
C[C@]1([N+](=O)[O-])C(=O)c2ccccc2O[C@@H]1CC(=O)NC1CCCC1 | cell growth or viability, SRB | 96 h | – | IC50 | > 50 µM
COc1cc(CNC(=O)CCCC/C=C/C(C)C)ccc1OCc1cn(-c2cc(OC)c(OC)c(OC)c2)nn1 | SRB | 10 µM, 48 h | – | growth percent | 80.9%
C[C@]1(N)C(=O)c2cc(F)ccc2O[C@@H]1CC(=O)NC12CC3CC(CC(C3)C1)C2 | cell growth or viability, SRB | 96 h | – | IC50 | > 50 µM
COc1cc(CNC(=O)CCCC/C=C/C(C)C)ccc1OCc1cn(-c2ccc(C)c(C)c2)nn1 | SRB | 10 µM, 48 h | – | growth percent | 78.4%
CCNC(=O)C[C@H]1Oc2ccccc2C(=O)[C@]1(C)[N+](=O)[O-] | cell growth or viability, SRB | 96 h | – | IC50 | 9.35 µM
COc1cccc2c1C(=O)c1c(O)c3c(c(O)c1C2=O)C[C@@](O)(C(=O)CO)C[C@@H]3O[C@H]1C[C@H](N)[C@H](O)[C@H](C)O1 | RT-qPCR | IC50 concentration, 72 h plus 24 h recovery | reference: untreated | GRPR mRNA level | 93.2 ± 7.11%
O=c1[nH]nc(O)c2c(-c3ccccc3)c3n(c12)CCn1cccc1-3 | cell growth or viability, MTT | 48 h | – | IC50 | 91.2 µM
COc1cc(CNC(=O)CCCC/C=C/C(C)C)ccc1OCc1cn(-c2ccc(C)cc2)nn1 | SRB | 10 µM, 48 h | – | growth percent | 84.2%
COC(=O)c1c(-c2ccc([N+](=O)[O-])cc2)c2n(c1C(=O)OC)CCn1cccc1-2 | cell growth or viability, MTT | 48 h | – | IC50 | 82.3 µM
C#C[C@@]1(O)[C@@H](CO)O[C@@H](n2cc(I)c3c(N)ncnc32)[C@@H]1O | cell growth or viability, SRB | 48 h | – | GI50 | 0.076 µM
C[C@]1([N+](=O)[O-])C(=O)c2ccc(F)cc2O[C@@H]1CC(=O)NC12CC3CC(CC(C3)C1)C2 | cell growth or viability, SRB | 96 h | – | IC50 | 3.03 µM
COc1cc(-c2c3n(c4c(=O)[nH]nc(O)c24)CCn2cccc2-3)ccc1O | cell growth or viability, MTT | 48 h | – | IC50 | 17.8 µM
CCc1ccc(-n2cc(COc3ccc(CNC(=O)CCCC/C=C/C(C)C)cc3OC)nn2)cc1 | SRB | 10 µM, 48 h | – | growth percent | 70.9%
C[C@]1([N+](=O)[O-])C(=O)c2ccccc2O[C@@H]1CC(=O)Nc1nccs1 | cell growth or viability, SRB | 96 h | – | IC50 | 36.9 µM
O=c1[nH]nc(O)c2c(-c3ccc(Cl)cc3)c3n(c12)CCn1cccc1-3 | cell growth or viability, MTT | 48 h | – | IC50 | 57.9 µM
COc1cc(CNC(=O)C[C@H](C)CCC=C(C)C)ccc1OCc1cn(-c2ccc(Cl)cc2)nn1 | SRB | 10 µM, 48 h | – | growth percent | 80.2%
O=c1[nH]nc(O)c2c(-c3cccc(Br)c3)c3n(c12)CCn1cccc1-3 | cell growth or viability, MTT | 48 h | – | IC50 | 66.3 µM
COc1cc(C=C(C#N)C(=O)Nc2nnc(NC(=O)c3ccccc3)s2)ccc1O | cell growth or viability, MTT | 48 h | – | IC50 | 18.4 µM
CNC(=O)C[C@H]1Oc2ccccc2C(=O)[C@]1(C)[N+](=O)[O-] | cell growth or viability, SRB | 96 h | – | IC50 | > 50 µM
O=c1[nH]nc(O)c2c(-c3cccc([N+](=O)[O-])c3)c3n(c12)CCn1cccc1-3 | cell growth or viability, MTT | 48 h | – | IC50 | 17.7 µM
CC[C@]1([N+](=O)[O-])C(=O)c2ccccc2O[C@@H]1CC(=O)NC1CCCCC1 | cell growth or viability, SRB | 96 h | – | IC50 | > 50 µM
COc1cc(CNC(=O)CCCC/C=C/C(C)C)ccc1OCc1cn(-c2ccc(Cl)cc2)nn1 | SRB | 10 µM, 48 h | – | growth percent | 79.2%
COc1cc(-c2c3n(c4c(=O)[nH]nc(O)c24)CCn2cccc2-3)cc(OC)c1OC | cell growth or viability, MTT | 48 h | – | IC50 | 81.3 µM
